Published values gathered from unrelated publications.
Protocols differ between the studies behind these lines. ± gives the spread as reported.

C[C@@H](c1ccccc1)N1C(=O)C2=Nc3ccccc3CN2C1=S has an IC50 of 0.48 ± 0.03 µM (CCRF-CEM; resazurin; 72 h).
The IC50 of CC[C@H](C)[C@H](NC(=O)[C@H](CCCCN)NC(=O)[C@H](CCCCN)NC(=O)[C@@H](NC(=O)[C@@H](NC(=O)[C@H](CC(=O)O)NC(=O)[C@H](Cc1ccccc1)NC(=O)[C@H](CC(C)C)NC(=O)CN)[C@@H](C)CC)[C@@H](C)CC)C(=O)N[C@@H](C)C(=O)N[C@@H](CCC(=O)O)C(=O)N[C@@H](CO)C(=O)N[C@@H](Cc1ccccc1)C(N)=O is reported as 64.6 µg/mL (HUVEC; cytotoxicity).
For CNS(=O)(=O)Nc1nccc(Cc2c(C)c3ccc(Oc4ncccc4F)cc3oc2=O)c1F, the IC50 was 0.145 µM (KMS-26; cell viability; 7 days).
C[C@H](c1ccccc1)N1C(=O)C2=Nc3cc([N+](=O)[O-])ccc3CN2C1=S has an IC50 of 0.14 µM (CCRF-CEM; cell growth or viability, resazurin; 72 h).
With Cc1cnc2nc1Nc1cccc(c1)COC/C=C/COCc1cc(ccc1OCCN1CCOCC1)N2 the IC50 was 1.88 µM (HEL 92.1.7 JAK2 V617F; cell growth, CCK-8).
COc1ccc(C[C@@H]2NC(=O)[C@H](c3ccccc3)NC(=O)CCC(=O)Nc3cccc(c3)[C@@H](CCc3ccc(OC)c(OC)c3)OC(=O)[C@@H]3CCCCN3C(=O)C(=O)C(C)(C)COC(=O)C=CCCN(C)C(=O)[C@H](CC(C)C)N(C)C(=O)[C@H]3CCCN3C2=O)cc1 has an IC50 of 0.033 ± 0.009 µM (HUVEC; thymidine uptake, inhibitor).
For C[C@H](c1ccccc1)N1C(=O)C2=Nc3ccc(F)cc3CN2C1=S, the IC50 was 0.52 ± 0.04 µM (CCRF-CEM; resazurin; 72 h).
COc1ccc(CC[C@H]2OC(=O)[C@@H]3CCCCN3C(=O)C(=O)C(C)(C)COC(=O)C=CCCN(C)C(=O)[C@@H](Cc3ccccc3)NC(=O)[C@@H](Cc3ccccc3)N(C)C(=O)[C@@H]3CCCN3C(=O)[C@H](CC(C)C)N(C)C(=O)CCC(=O)Nc3cccc2c3)cc1OC gave an IC50 of > 20 µM (HUVEC; thymidine uptake, inhibitor).
CCc1ccc(/N=C2\C(=O)N(Cc3ccc([N+](=O)[O-])cc3)c3ccccc32)cc1 gave an IC50 of 19.2 µM (L02; cell growth or viability, MTT; 48 h).
For C=CC(=O)N1CCCC(n2c(=O)c3ncccc3n(Cc3ccc(Oc4ccccc4)cc3)c2=O)C1 (stereo not drawn), the IC50 was 18 µM (AM-HLH; cell proliferation, MTT; 72 h).
NC1=C(Cl)C(=O)c2cccc([N+](=O)[O-])c2C1=O has an IC50 of 6.58 µM (MOLT-3; cell growth or viability, XTT).
With c1ccc(-c2ccnc3c2ccc2c(-c4ccccc4)ccnc23)cc1 the IC50 was > 50 µM (L02; cell growth or viability, MTT; 48 h).
For CC(C)OC(=O)[C@H](CO)NCc1cc(Cl)c(OCc2cccc(-c3ccccc3)c2Br)cc1OCc1cccnc1, the IC50 was > 10 µM (human PBMC; MTT).
The IC50 of CC1(C)CCC(CN2CCN(c3ccc(C(=O)NS(=O)(=O)c4ccc(NCC5CCOCC5)c([N+](=O)[O-])c4)c(Oc4cnc5[nH]ccc5c4)c3)CC2)=C(c2ccc(Cl)cc2)C1 is reported as 0.036 ± 0.01 µM (RS4-11; annexin V positive cells, FACS; 4 h).
For CC(C)c1ccc(N(C)c2ccc3c(c2)OCC[C@H]3CNc2cnccc2C(=O)O)cc1, the IC50 was ≥ 10 µM (COLO-829; cell growth or viability, ATP luminescence; 7 days).
For CCCc1cc2cc(-n3nc(CC)c4c3CC(C)(C)CC4=O)cc(N3CCC(O)CC3)c2c(=O)[nH]1, the IC50 was 3.41 µM (SK-OV-3; cell growth or viability, MTS).
CN1C(=O)/C(=N\c2ccc(Cl)cc2Br)c2ccccc21 gave an IC50 of 96.4 µM (L02; cell growth or viability, MTT; 48 h).
The IC50 of CC(C)CCC[C@@H](C)[C@H]1CC[C@H]2[C@@H]3CC=C4C[C@@H](OC(=O)NCCCN(C)CCCNC(=O)N(CCO)CCNc5ccc(NCCNCCO)c6c5C(=O)c5c(O)ccc(O)c5C6=O)CC[C@]4(C)[C@H]3CC[C@]12C is reported as 0.119 ± 0.078 µM (ARPE-19; cytotoxicity, CCK-8; 48 h).
The IC50 of NC(=O)c1ccc(-c2ccccc2Cl)c2c3c([nH]c12)CC[C@H](N)C3 is reported as 0.0216 µM (HGC-27; cell growth or viability).
For C[OH+][Cu-2]12[O]C(c3cn(-c4ccccc4)nc3-c3ccccc3)=N[N+]1=C(C)c1c(cc(C)oc1=O)[O]2 (stereo not drawn), the IC50 was 59.4 µM (Vero; cell growth or viability, MTT; 48 h).
COc1ccc(CC[C@H]2OC(=O)[C@@H]3CCCCN3C(=O)C(=O)C(C)(C)COC(=O)C=CCCN(C)C(=O)[C@H](CC(C)C)N(C)C(=O)[C@H]3CCCN3C(=O)[C@@H](Cc3ccccc3)N(C)C(=O)[C@H](Cc3ccccc3)NC(=O)CCC(=O)Nc3cccc2c3)cc1OC gave an IC50 of > 20 µM (HUVEC; thymidine uptake, inhibitor).
For O=C(CCCCCONC(=O)c1nc(-c2ccc(O)cc2)cs1)NO, the IC50 was 5.14 µM (neonatal foreskin fibroblasts; cytotoxicity, sulforhodamine B; 72 h).
For CCOc1cncc(-c2ccc(NC(=O)C3(c4ccnc(NS(=O)(=O)C5CC5)n4)CCOCC3)nc2)n1, the IC50 was 0.062 µM (OCI-AML2; cell proliferation, CellTiter-Glo; 72 h).
For CCNC(=S)NN=Cc1ccc([N+](=O)[O-])o1, the IC50 was > 100 µM (IMR-90; cell growth or viability, resazurin).
With Cc1nc(=S)[nH]c(C)c1/N=N/c1nnc(S)s1 the IC50 was 20.9 ± 1.73 µg/mL (Vero; MTT; 72 h).
CC(C)c1cccc(C(C)C)c1N1C(=O)C2=Nc3ccccc3CN2C1=S has an IC50 of 25.1 µM (CCRF-CEM; cell growth or viability, resazurin; 72 h).
CC[C@H](C)[C@H](NC(=O)[C@H](CCCCN)NC(=O)C[C@H](Cc1ccccc1)NC(=O)[C@H](CC(C)C)NC(=O)CN)C(=O)N[C@H](CC(=O)N[C@@H](CCCCN)C(=O)N[C@@H](CCCCN)C(=O)N[C@H](CC(=O)N[C@@H](C)C(=O)N[C@@H](CCCCN)C(=O)N[C@@H](CO)CC(=O)N[C@@H](Cc1ccccc1)C(N)=O)[C@@H](C)CC)[C@@H](C)CC gave an IC50 of 50.4 µg/mL (HUVEC; cytotoxicity).
COc1ccc(CC[C@H]2OC(=O)[C@@H]3CCCCN3C(=O)C(=O)C(C)(C)COC(=O)C=CCCN(C)C(=O)[C@H](Cc3cccc4ccccc34)NC(=O)[C@@H](Cc3ccccc3)N(C)C(=O)[C@@H]3CCCN3C(=O)[C@H](CC(C)C)N(C)C(=O)CCC(=O)Nc3cccc2c3)cc1OC gave an IC50 of > 20 µM (HUVEC; thymidine uptake, inhibitor).
N#Cc1c(N)nc2c(c1-c1ccc(CO)o1)Cc1cccc(O)c1-2 gave an IC50 of > 100 µM (MOLT-4; cell viability, CellTiter-Glo; no inhibition at 100 µM).
With COc1ccc(CC[C@H]2OC(=O)[C@@H]3CCCCN3C(=O)C(=O)C(C)(C)COC(=O)C=CCCN(C)C(=O)CN(C)C(=O)[C@H]3CCCN3C(=O)[C@H](Cc3ccccc3)N(C)C(=O)[C@H](Cc3ccccc3)NC(=O)CCC(=O)Nc3cccc2c3)cc1OC the IC50 was 0.44 ± 0.1 µM (HUVEC; thymidine uptake, inhibitor).
For CCN(CC)CCCC(C)Nc1c2ccc(Cl)cc2nc2ccc(OC)cc12 (stereo not drawn), the IC50 was > 100 µM (ARPE-19; cytotoxicity, CCK-8; 48 h).
The IC50 of Cc1ccc2c(Cl)cc(Cl)c([O-])c2n1.Cc1ccc2c(Cl)cc(Cl)c([O-])c2n1.[Co+2].c1ccc(-c2ccccn2)nc1 is reported as 68 ± 0.93 µM (HL-7702 normal hepatocytes; cell viability, MTT; 48 h).
CCCC(CCC)C(=O)[O][Pt]([NH2])([NH2])([Cl])([Cl])[O]C(C)=O has an IC50 of 3.06 µM (BCPAP; cell growth or viability, MTT; 72 h).
CC1(C)[C@H](NC(=O)c2cnn(CCO)c2)C(C)(C)[C@H]1Oc1ccc(C#N)c(Cl)c1 has an IC50 of 0.91 µM (MDA-MB-453; cell growth or viability, CCK-8; 7 days).
With C[C@H](c1ccccc1)N1C(=O)C2=Nc3cc(Cl)ccc3CN2C1=S the IC50 was 0.23 ± 0.02 µM (CCRF-CEM; resazurin; 72 h).
The IC50 of COc1ccc(CC[C@H]2OC(=O)[C@@H]3CCCCN3C(=O)C(=O)C(C)(C)COC(=O)C=CCCN(C)C(=O)[C@H](C(C)C)NC(=O)[C@@H](Cc3ccccc3)N(C)C(=O)[C@@H]3CCCN3C(=O)[C@H](CC(C)C)N(C)C(=O)CCC(=O)Nc3cccc2c3)cc1OC is reported as 1.2 ± 0.3 µM (HUVEC; thymidine uptake, inhibitor).
Cc1ccc([N+](=O)[O-])cc1S(=O)(=O)N(C)/N=C/c1cnc2ccc(Br)cn12 gave an IC50 of 0.177 µM (SF-539; MTS; NCI60 panel).
Cn1ncc(-c2ccc3c(=O)[nH]nc(CN)c3c2)c1-c1c(F)c(Cl)cc(OC2CC2)c1C#N gave an IC50 of 0.47 µM (LN-229; cell viability, inhibitor, CellTiter-Glo; 120 h, baseline-subtracted).
Cc1c(C)c2cccnc2c2ncccc12 has an IC50 of > 50 µM (L02; cell growth or viability, MTT; 48 h).
The IC50 of O=C1/C(=N\c2ccccc2Br)c2ccccc2N1Cc1ccc([N+](=O)[O-])cc1 is reported as 56 µM (L02; cell growth or viability, MTT; 48 h).
CC[C@H](C)[C@H]1C(=O)N(C)CCC=CC(=O)OCC(C)(C)C(=O)C(=O)N2CCCC[C@H]2C(=O)O[C@H](CCc2ccc(OC)c(OC)c2)c2cccc(c2)NC(=O)CCC(=O)N[C@@H](Cc2ccccc2)C(=O)N(C)[C@@H](Cc2ccccc2)C(=O)N2CCC[C@@H]2C(=O)N1C gave an IC50 of 1.2 ± 0.2 µM (HUVEC; thymidine uptake, inhibitor).
For Cc1nc(N(C)c2ccc3c(c2)/C(=C/c2ccccc2)C(=O)N3C)c2ccccc2n1, the IC50 was 3.12 µM (H22; cell growth or viability, MTT).
